# Measured values collected from several papers.
# Each line is one published result; not all experiments were run side by side.
# Organism: Escherichia coli
Compound,test,test system,conditions,MIC
CC[C@H]1OC(=O)[C@H](C)[C@@H](OC(=O)Cc2ccc(N)cc2)[C@H](C)[C@@H](O[C@@H]2O[C@H](C)C[C@H](N(C)C)[C@H]2O)[C@](C)(OC)C[C@@H](C)C(=O)[C@H](C)[C@@H](O)[C@]1(C)O,microbial growth,ATCC25922,,> 32 µg/mL
CC(C)C[C@@H]1NC(=O)[C@@H](CC(C)C)NC(=O)[C@H](CCN)NC(=O)[C@@H](NC(=O)[C@H](CCN)NC(=O)[C@@H](NC(=O)CCCCN=[N+]=[N-])[C@@H](C)O)CCNC(=O)[C@H]([C@@H](C)O)NC(=O)[C@H](CCN)NC(=O)[C@H](CCN)NC1=O,broth microdilution,ATCC 25922,18 to 20 h,8 µg/mL
COc1c(NC(=O)c2ccc(NC(=O)c3ccc(NC(=O)[C@H](CC#N)NC(=O)c4ccc(NC(=O)/C(C)=C/c5ccc(O)cc5)cc4)cc3)c(OC)c2O)ccc(C(=O)O)c1O,broth microdilution,ciprofloxacin-sensitive,,0.031 µg/mL
COc1ccc2ccc(O)c(/C=N/[C@H]3CCCC[C@H]3/N=C/c3c(O)cccc3OC)c2c1,"microbial growth, broth dilution",,,> 40 µM
CC[C@H](C)[C@H](NC(=O)[C@@H](CCCNC(=N)N)NC(=O)[C@H](CCCNC(=N)N)NC(=O)[C@@H]1CCCN1C(=O)[C@@H]1CCCN1C(=O)[C@H](CCCNC(=N)N)NC(=O)[C@@H]1CCCN1C(=O)[C@H](CCCNC(=N)N)NC(=O)[C@@H]1CCCN1C(=O)[C@H](CC(C)C)NC(=O)[C@H](Cc1ccc(O)cc1)NC(=O)[C@@H]1CCCN1C(=O)[C@@H]1CCCN1C(=O)[C@H](CCCNC(=N)N)NC(=O)[C@H](CC(=O)O)NC(=O)[C@@H](N)C(C)C)C(=O)N[C@@H](Cc1ccc(O)cc1)C(=O)N[C@@H](CC(N)=O)C(=O)N[C@H](CCCNC(=N)N)C(N)=O,broth microdilution,MC4100,"18 h, 37 °C, 25% MHB2",8 µg/mL
C[C@H](CS)C(=O)Nc1cccc(-c2nn[nH]n2)c1,broth microdilution,DH5α pET28-lacUV5 control,25 µM,> 64 µg/mL
CCCCCCCCCC[N+](C)(C)CCCCCCCCCCOc1cc(OCCCCCCCCCC[N+](C)(C)CCCCCCCCCC)cc(OCCCCCCCCCC[N+](C)(C)CCCCCCCCCC)c1.[Br-].[Br-].[Br-],,MC4100,,32 µM
CC[C@H]1OC(=O)[C@H](C)[C@@H](OC(=O)Cc2ccccc2[N+](=O)[O-])[C@H](C)[C@@H](O[C@@H]2O[C@H](C)C[C@H](N(C)C)[C@H]2O)[C@](C)(OC)C[C@@H](C)C(=O)[C@H](C)[C@@H](O)[C@]1(C)O,microbial growth,ATCC25922,,> 32 µg/mL
CC(C(=O)O)c1nn(C)c2nc(N)[nH]c(=O)c2c1=O (centres unmarked),"microbial growth, broth dilution",BW25113,18 h,> 100 µg/mL
COc1ccc2ccc(O)c(/C=N/[C@H]3CCCC[C@H]3/N=C/c3ccc(F)cc3O)c2c1,"microbial growth, broth dilution",,,> 40 µM
CC[C@H]1OC(=O)[C@H](C)[C@@H](OC(=O)Cc2cccc(Cl)c2)[C@H](C)[C@@H](O[C@@H]2O[C@H](C)C[C@H](N(C)C)[C@H]2O)[C@](C)(OC)C[C@@H](C)C(=O)[C@H](C)[C@@H](O)[C@]1(C)O,,lpxC,,16 µg/mL
CCCCCCCCCC(=O)Oc1c(C)c(OC)c2c(/C=C/c3ccccc3)c(CCCCCCCC)c(=O)oc2c1C,"microbial growth, broth dilution",ATCC25922,,5000 µg/mL
C#CCNC(=O)C1(O/N=C(\C(=O)N[C@@H]2C(=O)N(OS(=O)(=O)O)C2(C)C)c2csc(N)n2)CC1,agar dilution,16-1 ESBL,,2 µg/mL
COc1c(C)c(OC(=O)c2ccccc2)c(C)c(OC(=O)c2ccccc2)c1C(=O)/C=C/c1ccccc1,"microbial growth, broth dilution",ATCC25922,,2500 µg/mL
COc1c(NC(=O)c2ccc(NC(=O)[C@H](Cc3c[nH]nn3)NC(=O)c3ccc(NC(=O)/C(C)=C/c4ccc(O)cc4)cc3)cc2)ccc(C(=O)Nc2ccc(C(=O)O)c(O)c2)c1O,broth microdilution,ciprofloxacin-sensitive,,0.25 µg/mL
CCCCCCCCCCCC[N+](C)(C)CCCCCCOc1cc(OCCCCCC[N+](C)(C)CCCCCCCCCCCC)cc(OCCCCCC[N+](C)(C)CCCCCCCCCCCC)c1.[Br-].[Br-].[Br-],,MC4100,,16 µM
COc1cc(C(=O)O)ccc1NC(=O)c1ccc(NC(=O)c2ccc(NC(=O)[C@H](Cc3c[nH]nn3)NC(=O)c3ccc(NC(=O)/C(C)=C/c4ccc(O)cc4)cc3)cc2)c(OC)c1O,broth microdilution,ciprofloxacin-sensitive,,0.5 µg/mL
CN[C@H](CC(C)C)C(=O)N[C@H]1C(=O)N[C@@H](CC(N)=O)C(=O)N[C@H]2C(=O)N[C@H]3C(=O)N[C@H](C(=O)N[C@H](C(=O)NCC(N)=O)c4cc(O)cc(O)c4-c4cc3ccc4O)[C@H](O)c3ccc(c(Cl)c3)Oc3cc2cc(c3O[C@@H]2O[C@H](CO)[C@@H](O)[C@H](O)[C@H]2O[C@H]2C[C@](C)(NCc3ccc(OCc4cn(CC(=O)N[C@H](C(=O)N[C@@H](CCN)C(=O)N[C@H]5CCNC(=O)[C@H]([C@@H](C)O)NC(=O)[C@H](CCN)NC(=O)[C@H](CCN)NC(=O)[C@H](CC(C)C)NC(=O)[C@@H](CC(C)C)NC(=O)[C@H](CCN)NC5=O)[C@@H](C)O)nn4)c(OC)c3)[C@H](O)[C@H](C)O2)Oc2ccc(cc2Cl)[C@H]1O,broth microdilution,ATCC 25922,18 to 20 h,16 µg/mL
CCOc1c(NC(=O)c2ccc(NC(=O)c3ccc(NC(=O)[C@H](Cc4c[nH]nn4)NC(=O)c4ccc(NC(=O)/C(C)=C/c5ccc(O)cc5)cc4)cc3)c(OCC)c2O)ccc(C(=O)O)c1O,broth microdilution,ciprofloxacin-sensitive,,0.016 µg/mL
CCCCCCCC(=O)N[C@@H](CCN)C(=O)N[C@H](C(=O)N[C@@H](CCN)C(=O)N[C@H]1CCNC(=O)[C@H]([C@@H](C)O)NC(=O)[C@H](CCN)NC(=O)[C@H](CCN)NC(=O)[C@H](CC(C)C)NC(=O)[C@@H](Cc2ccccc2)NC(=O)[C@H](CCN)NC1=O)[C@@H](C)O,broth microdilution,"ATCC 25922, colistin-susceptible",,0.25 µg/mL
COc1cc(C(=O)Nc2ccc(C(=O)O)c(O)c2OC)ccc1NC(=O)c1ccc(NC(=O)[C@H](Cc2c[nH]nn2)NC(=O)c2ccc(NC(=O)/C(C)=C/c3ccc(O)cc3)cc2)cc1,broth microdilution,ciprofloxacin-sensitive,,0.25 µg/mL
c1ccc(CN2CCOCCOCCN(CCCCCCCCN3CCOCCOCCN(CCCCCCCCN4CCOCCOCCN(Cc5ccccc5)CCOCCOCC4)CCOCCOCC3)CCOCCOCC2)cc1,,tetracycline-resistant (pBR322),,250 µM
CC1(C)C(NC(=O)C(=NOC2(C(=O)O)CCC2)c2csc(N)n2)C(=O)N1OS(=O)(=O)O (centres unmarked),agar dilution,"16-1, ESBL-producing",,0.06 µg/mL
CCCCCCCCCC[N+](C)(C)CCCCCCCCOc1cc(OCCCCCCCC[N+](C)(C)CCCCCCCCCC)cc(OCCCCCCCC[N+](C)(C)CCCCCCCCCC)c1.[Br-].[Br-].[Br-],,MC4100,,8 µM
CCC(CC)c1cc(CCN2CCCN(S(=O)(=O)c3ccc4ccccc4c3)CC2)nc(-c2ccccn2)n1,"microbial growth, broth dilution",ATCC25922,,> 64 µg/mL
CC(C)Oc1c(NC(=O)c2ccc(NC(=O)C(CC(N)=O)NC(=O)c3ccc(NC(=O)c4ccc(C#N)cc4)cc3)cc2)ccc(C(=O)Nc2ccc(C(=O)O)cc2)c1O (centres unmarked),microbial growth,BW25113,,0.1 µg/mL
CC[C@H]1OC(=O)[C@H](C)[C@@H](OC(=O)Cc2c(F)cc([N+](=O)[O-])cc2F)[C@H](C)[C@@H](O[C@@H]2O[C@H](C)C[C@H](N(C)C)[C@H]2O)[C@](C)(OC)C[C@@H](C)C(=O)[C@H](C)[C@@H](O)[C@]1(C)O,,tolC,,2 µg/mL
CC[C@H](C)[C@H](NC(=O)[C@@H](CCCNC(=N)N)NC(=O)[C@H](CCCNC(=N)N)NC(=O)[C@@H]1CCCN1C(=O)[C@@H]1CCCN1C(=O)[C@H](CCCCN)NC(=O)[C@@H]1CCCN1C(=O)[C@H](CCCNC(=N)N)NC(=O)[C@@H]1CCCN1C(=O)[C@H](CC(C)C)NC(=O)[C@H](Cc1ccc(O)cc1)NC(=O)[C@@H]1CCCN1C(=O)[C@@H]1CCCN1C(=O)[C@H](CCCCN)NC(=O)[C@H](CC(=O)O)NC(=O)[C@@H](N)C(C)C)C(=O)N[C@@H](Cc1ccc(O)cc1)C(=O)N[C@@H](CC(N)=O)C(=O)N[C@H](CCCNC(=N)N)C(N)=O,broth microdilution,ATCC 25922,"18 h, 37 °C, 25% MHB2",8 µg/mL
N=C(N)NCCC[C@@H]1NC(=O)[C@H](CCCNC(=N)N)NC(=O)[C@H](CCCNC(=N)N)NC(=O)[C@@H](CCCNC(=N)N)NC(=O)[C@H](Cc2ccc3ccccc3c2)NC(=O)[C@H](Cc2ccc3ccccc3c2)NC(=O)[C@H](Cc2ccc3ccccc3c2)NC1=O,,ATCC 25922,,16 µg/mL
CC[C@H]1OC(=O)[C@H](C)[C@@H](OC(=O)Cc2ccc(Cl)cc2)[C@H](C)[C@@H](O[C@@H]2O[C@H](C)C[C@H](N(C)C)[C@H]2O)[C@](C)(OC)C[C@@H](C)C(=O)[C@H](C)[C@@H](O)[C@]1(C)O,,lpxC,,> 32 µg/mL
COc1ccc2ccc(O)c(/C=N/[C@H]3CCCC[C@H]3/N=C/c3cc(F)ccc3O)c2c1,"microbial growth, broth dilution",,clinical isolate,> 40 µM
C/C(=C\c1ccc(O)cc1)C(=O)Nc1ccc(C(=O)N[C@@H](Cc2c[nH]nn2)C(=O)Nc2ccc(C(=O)Nc3ccc(C(=O)Nc4ccc(C(=O)O)c(O)c4)c(O)c3)cc2)cc1,broth microdilution,ciprofloxacin-resistant,,0.5 µg/mL
COc1cc2c(cc1OC)C1Cc3ccc(OC)c(OC)c3C[NH+]1CC2.[Cl][Fe-]([Cl])([Cl])[Cl] (centres unmarked),,,"24 h, 37 °C",> 1600 µM
Cc1nn(C)c2nc(N)[nH]c(=O)c2c1=O,"microbial growth, broth dilution",BW25113,18 h,100 µg/mL
COc1nc(C(=O)Nc2ccc(C(=O)O)c(O)c2OC)ccc1NC(=O)c1ccc(NC(=O)[C@H](Cc2c[nH]nn2)NC(=O)c2ccc(NC(=O)/C(C)=C/c3ccc(O)cc3)cc2)cc1,broth microdilution,BW25113,,0.063 µg/mL

# Repeated from above:
Compound,test,test system,conditions,MIC
CC(C)C[C@@H]1NC(=O)[C@@H](CC(C)C)NC(=O)[C@H](CCN)NC(=O)[C@@H](NC(=O)[C@H](CCN)NC(=O)[C@@H](NC(=O)CCCCN=[N+]=[N-])[C@@H](C)O)CCNC(=O)[C@H]([C@@H](C)O)NC(=O)[C@H](CCN)NC(=O)[C@H](CCN)NC1=O,broth microdilution,ATCC 25922,18 to 20 h,8 µg/mL
COc1c(NC(=O)c2ccc(NC(=O)c3ccc(NC(=O)[C@H](CC#N)NC(=O)c4ccc(NC(=O)/C(C)=C/c5ccc(O)cc5)cc4)cc3)c(OC)c2O)ccc(C(=O)O)c1O,broth microdilution,ciprofloxacin-sensitive,,0.031 µg/mL
